Experimental data from different studies.
Numbered parts are unrelated; each lists some results of a single study. Positions count from the first letter of the parent shown.

Sample 1 — target: CCNB2, cyclin fold, Cln2 fusion (human); method: yeast growth competition, sequencing; matrix: yeast; notes: weak parent motif; baseline: not given; direction: higher = stronger binding
Starting sequence: RBL1 docking peptide (human); GSAKRRLFGEDPP; partner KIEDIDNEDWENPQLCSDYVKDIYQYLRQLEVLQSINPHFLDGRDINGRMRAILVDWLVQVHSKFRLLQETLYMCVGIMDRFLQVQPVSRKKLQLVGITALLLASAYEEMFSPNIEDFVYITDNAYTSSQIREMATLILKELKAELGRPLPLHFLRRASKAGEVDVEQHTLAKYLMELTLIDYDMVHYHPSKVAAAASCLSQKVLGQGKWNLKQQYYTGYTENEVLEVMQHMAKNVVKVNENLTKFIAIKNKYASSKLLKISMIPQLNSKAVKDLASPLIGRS
For `FSAKRRLFGEDPP [G1F]`, “normalised enrichment score” read 0.909.
Under “normalised enrichment score”, `GMAKRRLFGEDPP [S2M]` is recorded as 0.0404.
`TSAKRRLFGEDPP [G1T]`: “normalised enrichment score” 0.833.
For `GSAKRRLHGEDPP [F8H]`, “normalised enrichment score” read 0.313.
`GSAKRRLFVEDPP [G9V]`: “normalised enrichment score” 0.574.
Under “normalised enrichment score”, `GSAKRRPFGEDPP [L7P]` is recorded as 0.554.

Sample 2 — method: RNA Bind-n-Seq; form: RNA; matrix: in vitro; tested at: 1 µM; notes: whole 134-nt RNA, ends assumed; added: 150 mM KCl; baseline: input library; direction: higher = stronger binding
Target: Ras GTPase-activating protein-binding protein 1, RRM domain (G3BP1, Homo sapiens, UniProt Q13283)
Sequence of UniProt Q13283 (whole entry, looked up): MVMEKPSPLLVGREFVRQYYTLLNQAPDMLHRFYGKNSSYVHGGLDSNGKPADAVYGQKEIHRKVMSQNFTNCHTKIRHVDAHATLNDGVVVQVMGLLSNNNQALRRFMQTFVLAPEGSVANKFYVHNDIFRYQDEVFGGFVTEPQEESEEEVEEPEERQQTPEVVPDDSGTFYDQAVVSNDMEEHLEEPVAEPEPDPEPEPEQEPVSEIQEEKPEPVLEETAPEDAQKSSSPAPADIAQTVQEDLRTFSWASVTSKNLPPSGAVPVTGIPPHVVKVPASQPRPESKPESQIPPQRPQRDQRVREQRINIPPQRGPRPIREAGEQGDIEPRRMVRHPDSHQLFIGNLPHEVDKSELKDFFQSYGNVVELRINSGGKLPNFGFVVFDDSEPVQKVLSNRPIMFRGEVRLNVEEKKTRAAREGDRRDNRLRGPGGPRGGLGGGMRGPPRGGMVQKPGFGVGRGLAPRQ
`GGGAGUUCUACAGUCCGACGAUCUGGCCCUGGUGGCAUGCGGGGAGGAAGAGGUGGCCUCAUGGAUCGUGGUGGUCACGGUGGAAUGUUCAGAGGUGGCCGUGGUGGAGACAGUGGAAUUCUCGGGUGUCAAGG` has a log2 enrichment of 1.
For `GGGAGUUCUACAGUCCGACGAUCACCAUGCAGGUGGGCUUCUUUGGGAAGUGGGGCAAGGGGGGGAUAGGGAGGGGGGUAACACUUUGGGAACAGGUGGUCCCAGGUCGUUUCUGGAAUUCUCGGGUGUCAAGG`, the log2 enrichment was -0.501.
`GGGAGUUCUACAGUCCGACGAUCCACAGACAACACGCACCCACACAGACACAGAGGGAAGGGGUUGGGAUGGGGACAGGGUGCACCGCAGGGCGGGGUAGGACCCCAGCCCCUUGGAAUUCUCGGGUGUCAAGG` gave a log2 enrichment of -0.0502.
For `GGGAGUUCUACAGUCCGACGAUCUUCCUUCCACGACCCCUGAAGAGCAGCGGUGGGUCUGAGCAUCCUAUCUCCAGGAAGCAGGCCAGCAGGCAAGCCAGCUGCCACCUCGUCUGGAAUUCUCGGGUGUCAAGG`, the log2 enrichment was -0.206.
The log2 enrichment of `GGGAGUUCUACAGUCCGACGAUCUCCUGUGCUACACAUCGUAUGUACCGAAUCGGGAAAAAGGGUUUUUUUGGGAAAAAGGGAAAGUAUUAUGUUACGCCGUUCGGAUCUGCAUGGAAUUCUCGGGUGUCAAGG` is reported as -0.151.
`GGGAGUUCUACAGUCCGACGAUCUGGGAGGUGGAUUUUCUUUAUUUUUUUAGCUCAUUUCCAGGGGUGGGAAUUUUUUUUUAAUAUGUGUCAUGAAUAAAGUUGUUUUUGAAAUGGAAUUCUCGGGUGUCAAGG` gave a log2 enrichment of 1.71.
`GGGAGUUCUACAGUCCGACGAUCCUCAAGUCCUGUGCUACACAUCGUAUGUACCGAAUCGGGAAGGGGAAGGGAAGGAAAGUAUUAUGUUACGCCGUUCGGAUCUGCACUUCCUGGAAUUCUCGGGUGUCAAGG` gave a log2 enrichment of -0.221.
`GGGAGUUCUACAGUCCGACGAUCACCAUGCAGGUGGGCAUCUUUGGGAAGUGGGGCAAGGGGGGGAUAGGAAAGGGGGUAACACUUUGGGAACAGGUGGUCCCAGGUCGUUUCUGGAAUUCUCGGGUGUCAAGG` gave a log2 enrichment of -0.367.

Sample 3 — method: protein-binding microarray; form: double-stranded DNA, one strand shown; matrix: in vitro; tested at: not given; direction: higher = stronger binding
Target: Hepatocyte nuclear factor 3-beta, forkhead domain (FOXA2, Homo sapiens, UniProt Q9Y261, residues 142-269)
Notes: k-mer, scored over probes, only values ≥0.25
Residues (chain): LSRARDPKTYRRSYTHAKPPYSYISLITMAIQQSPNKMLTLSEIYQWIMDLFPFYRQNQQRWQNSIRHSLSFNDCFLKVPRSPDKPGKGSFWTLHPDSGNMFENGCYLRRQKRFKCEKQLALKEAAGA
The E-score of `TATACTCA` is reported as 0.281.
`AGTAAATA` has an E-score of 0.402.
The E-score of `ACACTATC` is reported as 0.285.
For `CAAACATA`, the E-score was 0.313.
`AGATAACG` has an E-score of 0.263.
The E-score of `GGATAAAC` is reported as 0.263.

Single results of other studies
`PhoQ, residues 284 288 289 292 302 303 ALSMDL` gave a fold induction of 1.05 (PhoP, residues 12 14 15 18 19 LHSVW (Escherichia coli, UniProt P23836); Sort-seq, measured: YFP reporter; E. coli; PhoQ-PhoP variant library, added: 10 µM Mg2+; baseline: high Mg2+ state, higher = stronger signaling).

Repeated from above (sample 2):
The log2 enrichment of `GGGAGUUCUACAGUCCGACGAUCUCCUGUGCUACACAUCGUAUGUACCGAAUCGGGAAAAAGGGUUUUUUUGGGAAAAAGGGAAAGUAUUAUGUUACGCCGUUCGGAUCUGCAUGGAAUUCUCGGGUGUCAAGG` is reported as -0.151.
`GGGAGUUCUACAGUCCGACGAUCUGGGAGGUGGAUUUUCUUUAUUUUUUUAGCUCAUUUCCAGGGGUGGGAAUUUUUUUUUAAUAUGUGUCAUGAAUAAAGUUGUUUUUGAAAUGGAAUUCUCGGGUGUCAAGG` gave a log2 enrichment of 1.71.
`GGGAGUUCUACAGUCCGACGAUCCUCAAGUCCUGUGCUACACAUCGUAUGUACCGAAUCGGGAAGGGGAAGGGAAGGAAAGUAUUAUGUUACGCCGUUCGGAUCUGCACUUCCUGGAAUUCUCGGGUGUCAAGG` gave a log2 enrichment of -0.221.
